Published values collected from several papers.
A part holds a random share of what one study measured.

Set 1 — technique: RNA Bind-n-Seq; form: RNA; medium: in vitro; tested at: 365 nM; baseline: no-protein control; reading: higher = stronger binding; endpoint: RBNS enrichment (R)
Target: RNA binding protein fox-1 homolog 2, RRM domain, GST-SBP tag (RBFOX2, Homo sapiens, UniProt O43251-10, residues 100-194)
Notes: natural RNA segment, single round, ends assumed
All sequences stand within: GGGAGUUCUACAGUCCGACGAUC … UGGAAUUCUCGGGUGCCAA
Residues (chain): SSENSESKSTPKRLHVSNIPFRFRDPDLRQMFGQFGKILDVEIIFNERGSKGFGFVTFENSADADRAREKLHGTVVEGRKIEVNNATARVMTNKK
GCUUAUGAGCAGUAAUUUAAGAAAACCCACAAAACUUGAUUGUGAAAAACCGAAUAACCAAGCAGCGCGUCUGCUCUUUCCCUGAUUCGCAUGUGACUGUGAUGCUUUCC: 0.552
AGGAUCACAGAGUUCAGGGGGAAAAUGUGACAGCACACGCACAAACGCCUUCACUGGAUCAGCCGCUGGAACUGAGGGAGUGAGCUUGGGGACUUCCUUCGUCAGCACUG: 2.92
CAGACUCCUCUGACCUGGAUGCGGUCACAUCCACCUUUAAGAUUGUCAGUGCAUACUCCUUCCUGACGAUCCCCUGGGGCAAGCUGCCGACAGUGGCGUAAACAGGAGAC: 0.374
GUUGGGAAAGCCUCGUGUUGAAAGCCGGGGGAGCUUAAAUGAUCCAGGUGGUAGCUAGGGACCGUCCAUCAGUGGUCCUUCCCUCCACCGCCACGCCAGCUCCUGGGUCG: 0.292
AACUCCUCCCUUUUAUCUUCUAGCCACAGUUCUAAGACCCAAAGUGGGGGGUGGACACAGAAGUCCCUAGGAGGGAAGGAGCUGUUGGGGCAGGGGUGUAAAUUAUUUCC: 0.504
GUAAGAGAGCAAAGUUUCCUUCCUUUCUUCUCUUUCUUCAUUUUCUUUUUUUCUUUUUUGCCUUUUAUUCCUUUAAAAUUUCGCCUGGCAAAAAAUAAAUAAAUGGAACU: 0.639

Set 2 — technique: universal PBM; form: double-stranded DNA, one strand shown; medium: in vitro; tested at: 600 nM; reading: higher = stronger binding; endpoint: E-score
Target: Sal-like protein 4, full length isoform A (SALL4, Homo sapiens, UniProt Q9UJQ4, residues 1-1053)
Chain of UniProt Q9UJQ4 (whole entry, looked up): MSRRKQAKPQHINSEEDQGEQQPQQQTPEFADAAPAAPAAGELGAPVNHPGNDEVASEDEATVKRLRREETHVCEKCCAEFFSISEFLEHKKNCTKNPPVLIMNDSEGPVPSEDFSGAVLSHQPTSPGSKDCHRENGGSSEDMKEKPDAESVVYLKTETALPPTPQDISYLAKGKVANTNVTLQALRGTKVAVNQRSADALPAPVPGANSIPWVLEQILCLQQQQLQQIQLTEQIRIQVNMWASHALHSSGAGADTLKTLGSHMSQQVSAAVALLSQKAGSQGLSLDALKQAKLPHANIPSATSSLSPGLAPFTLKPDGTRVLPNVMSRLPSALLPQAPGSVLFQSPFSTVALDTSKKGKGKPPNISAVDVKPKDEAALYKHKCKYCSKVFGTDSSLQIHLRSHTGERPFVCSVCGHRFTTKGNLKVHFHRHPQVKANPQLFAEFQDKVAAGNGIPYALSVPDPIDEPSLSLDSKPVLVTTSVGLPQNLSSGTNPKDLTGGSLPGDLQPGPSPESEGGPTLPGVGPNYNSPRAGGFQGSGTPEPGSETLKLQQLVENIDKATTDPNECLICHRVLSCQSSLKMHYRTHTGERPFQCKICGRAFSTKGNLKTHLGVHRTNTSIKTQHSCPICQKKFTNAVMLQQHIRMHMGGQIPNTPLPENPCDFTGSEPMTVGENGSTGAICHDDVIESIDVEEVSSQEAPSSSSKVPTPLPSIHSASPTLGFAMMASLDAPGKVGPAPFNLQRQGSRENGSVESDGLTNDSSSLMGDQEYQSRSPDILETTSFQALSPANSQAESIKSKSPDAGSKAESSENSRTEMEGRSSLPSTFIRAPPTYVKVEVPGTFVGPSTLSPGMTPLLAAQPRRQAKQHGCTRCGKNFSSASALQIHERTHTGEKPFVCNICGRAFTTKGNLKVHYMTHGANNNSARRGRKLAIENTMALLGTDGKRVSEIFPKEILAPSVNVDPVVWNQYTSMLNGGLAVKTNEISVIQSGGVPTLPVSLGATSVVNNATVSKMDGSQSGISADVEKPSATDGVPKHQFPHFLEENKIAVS
Notes: 8-mer, flanks averaged, mean of replicates
CCGGTCGA: -0.419
CTGGCATC: -0.207
AGTATGGC: -0.132
GCAGTGGA: -0.00522
CTATTCTA: 0.186
ACCTCTAC: 0.0373

Set 3 — technique: RNA Bind-n-Seq; form: RNA; medium: in vitro; tested at: 20 nM; notes: 6-mer, flanks averaged, single round; added: 150 mM LiCl; baseline: input library; reading: higher = stronger binding; endpoint: 6-mer enrichment (R)
Target: TAR DNA-binding protein 43, full length, His tag (TARDBP, Homo sapiens, UniProt Q13148, residues 1-414)
UCAUGA: 0.837
AUCGAC: 0.792
CAGUCA: 0.81
AGCGGC: 0.976
UCAUUG: 0.93

Single results of other studies
PhoQ, residues 284 288 289 292 302 303 AGGLSV  fold induction (PhoP, residues 12 14 15 18 19 SQCLL (Escherichia coli, UniProt P23836); Sort-seq, measured: YFP reporter; E. coli; PhoQ-PhoP variant library, added: 10 µM Mg2+; baseline: high Mg2+ state, higher = stronger signaling): 10.5

For quick reference, copied from above (set 2):
GCAGTGGA: -0.00522
